Measurements collected from several papers.
Every numbered part comes from another study and shows a few of its results, in no order. Changes are numbered by the printed parent chain.

Set 1 — method: DHFR PCA, deep sequencing; medium: yeast; together with: (+)-ABA 0.39 µM; relative to: wild-type fitted maximum; reading: higher = stronger binding
Target: ABI1, truncated, D143A, DHFR fusion (Arabidopsis thaliana)
Setting: methotrexate growth selection, single substitutions
Parent: PYL1, truncated, DHFR fusion (Arabidopsis thaliana); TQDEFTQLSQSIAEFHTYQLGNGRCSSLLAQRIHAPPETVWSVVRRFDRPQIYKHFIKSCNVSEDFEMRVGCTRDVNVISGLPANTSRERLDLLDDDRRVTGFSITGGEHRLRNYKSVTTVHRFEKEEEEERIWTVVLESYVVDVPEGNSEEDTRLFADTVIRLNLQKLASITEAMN
Change | relative binding score [%]
S26K | 1.08
M68C | 18.2
V44A | 13.7
C25Q | -6.81
E38N | -4.68
V100C | 6.83
C60P | 9.88
I162K | -1.7
S27A | 4.73
E128I | 21.2
V161T | 19.3
E131C | 46.2

Set 2 — target: CCNF, cyclin fold, Cln2 fusion (human); method: yeast growth competition, sequencing; medium: yeast; setting: strong parent motif; relative to: not given; reading: higher = stronger binding
Parent: RB1 docking peptide (human); PKPLKKLRFDIEG; partner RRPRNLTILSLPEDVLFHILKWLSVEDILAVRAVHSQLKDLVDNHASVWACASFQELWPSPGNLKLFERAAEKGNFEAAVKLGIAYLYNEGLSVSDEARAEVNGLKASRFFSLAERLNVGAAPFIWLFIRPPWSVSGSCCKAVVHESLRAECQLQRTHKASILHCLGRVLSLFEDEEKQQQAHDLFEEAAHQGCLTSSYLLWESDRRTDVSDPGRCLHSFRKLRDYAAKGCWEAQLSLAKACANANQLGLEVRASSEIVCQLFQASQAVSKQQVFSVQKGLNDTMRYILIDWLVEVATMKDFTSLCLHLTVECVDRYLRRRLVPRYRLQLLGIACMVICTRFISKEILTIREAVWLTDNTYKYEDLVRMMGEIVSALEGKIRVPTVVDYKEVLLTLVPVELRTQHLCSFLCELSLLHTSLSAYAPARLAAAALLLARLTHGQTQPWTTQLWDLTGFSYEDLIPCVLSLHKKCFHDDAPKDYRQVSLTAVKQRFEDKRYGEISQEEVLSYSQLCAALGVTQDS
Change | normalised enrichment score
K6D | -0.26
L4T | 0.932
K5S | 2.2
P3E | 1.48
K6Q | 0.763
G13F | 1.39
G13Y | -0.124
R8A | 1.16
K2L | 1.85
K5T | 1.54
E12K | 0.985

Set 3 — method: universal PBM; molecule type: double-stranded DNA, one strand shown; medium: in vitro; tested at: not given; reading: higher = stronger binding
Target: Sal-like protein 4, full length isoform B (SALL4, Homo sapiens, UniProt Q9UJQ4-2, residues 1-616)
Setting: 8-mer, flanks averaged, mean of replicates
Sequence | E-score
GGTCCAGA | -0.197
GGTTTGTA | 0.04
ATCTCTGA | 0.0207
AAATCCTC | -0.183
CAATACGC | 0.141
ACTGCAAA | 0.132
GGATGTCA | -0.0198
CGACCAGC | -0.188
CCAAGATC | -0.0713

Set 4 — method: protein binding microarray; molecule type: double-stranded DNA, one strand shown; medium: in vitro; tested at: not given; relative to: not given; reading: higher = stronger binding
Target: Histone acetyltransferase KAT6A, winged helix 1, GST fusion (KAT6A, Homo sapiens, UniProt Q92794, residues 1-85)
Setting: 8-mer, flanks averaged, mean of 2 arrays, mostly near background
Target sequence (chain): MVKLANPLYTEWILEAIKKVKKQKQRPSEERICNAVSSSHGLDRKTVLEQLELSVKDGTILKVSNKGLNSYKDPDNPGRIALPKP
Sequence | E-score
AGCATTCG | -0.0578
AACACGAG | -0.21
CACACAAG | -0.275
AACCTGTA | -0.181
AGAGACCG | 0.0915
CCCGTGCA | 0.225
CCCTCCCG | 0.16
CAGTGGTA | -0.16
CACACCGC | 0.158
CAGTGAGG | -0.107
CCAGCGCC | 0.294
ATGCCGAG | 0.251
CTCAATTA | -0.0472
CCTCGAAG | -0.109

Set 5 — method: protein-binding microarray; molecule type: double-stranded DNA, one strand shown; medium: in vitro; tested at: 2540 nM top; setting: 60-bp whole probe; together with: salmon DNA 0.4 mg/ml; relative to: random background probes; reading: higher = stronger binding; all sequences stand within: GCCTAGCAC … GTCTTGATTCGCTTGACGCTGCTG
Target: Interferon regulatory factor 3, full length, phosphomimetic (IRF3, Homo sapiens, UniProt Q14653, residues 1-427, S386D/S396D/S398D/S402D/T404D/S405D)
Sequence of UniProt Q14653 (whole entry, unmodified, looked up): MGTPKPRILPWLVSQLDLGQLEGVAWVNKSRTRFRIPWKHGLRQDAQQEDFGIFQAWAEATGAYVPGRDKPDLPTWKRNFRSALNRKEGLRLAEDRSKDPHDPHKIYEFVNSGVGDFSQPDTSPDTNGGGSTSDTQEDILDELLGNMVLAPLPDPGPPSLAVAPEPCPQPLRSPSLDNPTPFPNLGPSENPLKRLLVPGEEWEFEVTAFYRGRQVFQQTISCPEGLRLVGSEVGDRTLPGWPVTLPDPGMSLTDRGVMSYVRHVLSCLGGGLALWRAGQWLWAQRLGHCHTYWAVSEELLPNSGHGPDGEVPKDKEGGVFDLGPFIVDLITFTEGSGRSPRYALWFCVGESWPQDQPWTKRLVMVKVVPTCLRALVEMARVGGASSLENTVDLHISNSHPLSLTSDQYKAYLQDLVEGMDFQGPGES
Sequence | fitted relative affinity [z-score]
GACGTACTGCTTCTCCTGACGTGCTAG | 0.0883
TTACGTTTCCTTCTCCTTTAGTGCTAG | 8.3
TTAGGTATAGGTATCGGTTAGTGCTAG | 1.32
GACGGTATCGGTCTCGGGAAGTGCTAG | 4.57
TTAGGTTTAGACTATCGGTTAGTGCTA | -0.266
TTAGGTATCGGCACTGGGTTAGTGCTA | 0.0751
TCTCTTTCCTTCTTGATGCAGTGCTAG | 7.62
TTAGGACCGGACTATCGGTTAGTGCTA | 0.258
CTTTTTTTCTTTTATTAGTGGTGCTAG | 4.07
TAAGGTATCGACTTTCGGTTAGTGCTA | 2.14
TTAGGTCTCCTGCTCCTTTAGTGCTAG | 0.282
TTAGTTATCAGTTTCGATTAGTGCTAG | 5.35
GACGGATTCGACTATCGGGACGTGCTA | 0.579
GACTATTTCAGTATCGAGACGTGCTAG | 1.79
CTCTTTCTTTGCTTCACCCTGTGCTAG | 2.09
TTAGGTATCCGTATCGGTTAGTGCTAG | 4.88

Set 6 — method: RNA Bind-n-Seq; molecule type: RNA; medium: in vitro; tested at: not given; relative to: input RNA pool; reading: higher = stronger binding
Target: RING finger protein unkempt homolog, zinc fingers 1-6, GST-SBP tag (UNK, Homo sapiens, UniProt Q9C0B0, residues 30-357)
Sequence of UniProt Q9C0B0 (30-357, looked up): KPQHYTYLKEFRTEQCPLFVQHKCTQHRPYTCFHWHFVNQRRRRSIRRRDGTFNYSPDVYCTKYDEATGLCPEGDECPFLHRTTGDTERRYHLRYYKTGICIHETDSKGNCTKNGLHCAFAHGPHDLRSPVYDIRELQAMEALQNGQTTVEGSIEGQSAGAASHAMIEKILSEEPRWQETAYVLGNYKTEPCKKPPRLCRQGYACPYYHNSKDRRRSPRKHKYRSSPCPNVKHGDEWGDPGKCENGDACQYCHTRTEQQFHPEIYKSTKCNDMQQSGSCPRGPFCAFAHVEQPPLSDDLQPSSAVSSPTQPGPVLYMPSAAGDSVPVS
Setting: RNA with constant flanks, human and mouse sites, ends assumed
All sequences stand within: GGGAGUUCUACAGUCCGACGAUC … CAACAGAGGAUUGAGCAUCA
Sequence | bound/input enrichment
AAAAAAGAGGCAAAGAAACGGGAGAAACUAGAGAAAUUCCAGCAGAAGCAGAAGACCCAGCAGCAGCCCCCGCACGGAGAGAAGAAACCAAAACCAGAGAAGAAGGAGAAACGGGACCCU | 0.506 ratio
AUAAUGAAUAUUAAAUGAUUUUUCUUCAGUCACAGUGAGAGCAUCUUGCUUUGUGGUUGAAAUAGGUAGUGUAUGUCAGUCUUUGCUUUAGGCUGUUUCUCAUCUAAGUGUUUGAAUUAA | 8.39 ratio
CUGAGAUUAUAUGAAGCAGUUAUUGAUGCUAAGAAACUUUUAUCUGAGCUUUCUAACCCUGAAAUUUCUAAAUAUGUUGGUGAAGUCUUUAACAUCGUCAGUCAACAAUCAACAGCCAGG | 0.319 ratio
CAAAUUCAUCUCUUUUUAUAUGUCCGAAAACGGCCGAGCUUUUCAGCAGUGGCUGGCUUGGCCGACUCUGCCGUCCCUGGCAGAGCGUUGUUACUGUUGCUCCUUAGCAGCUGCUGCCUG | 0.585 ratio
GGAGAUGGACUUUUUGAUGAAGAAAUCCGAAGUGUCUUUACCAAUCCGGGUGUUUUGGCUGUCUUGGGUUUUGACAAAACCUGCCUGGUUCCCUUUGGGGGAUCCGAAUGAGCGAUCUCA | 0.141 ratio
UUUUUUGUGAACAAGAUUUUGCCACAGUAUCGUGAUGCAGUCAUGUCUCACACGCUCAUCUAUAUCCCCUCCUACUUUGACUUCGUGCGUCUUCGAAAUUACUUCAAGAAGGAGGAAUUG | 0.22 ratio
UACUGAACUGAACCUGUAAGCCAGCCCCAAUUAAAUGUUGUCCUUAGAAGAGUUGCUUUGGUCAUGGUGUCUGUUCUCAGCGAGGAAAACCCUAGCCAAGAUAGAUGCAAAAGAAAGGAG | 0.259 ratio

Set 7 — method: RNA Bind-n-Seq; molecule type: RNA; medium: in vitro; tested at: 1 µM; setting: whole 134-nt RNA, ends assumed; together with: 150 mM KCl; relative to: input library; reading: higher = stronger binding
Target: Ras GTPase-activating protein-binding protein 1, RRM domain (G3BP1, Homo sapiens, UniProt Q13283)
Sequence of UniProt Q13283 (whole entry, looked up): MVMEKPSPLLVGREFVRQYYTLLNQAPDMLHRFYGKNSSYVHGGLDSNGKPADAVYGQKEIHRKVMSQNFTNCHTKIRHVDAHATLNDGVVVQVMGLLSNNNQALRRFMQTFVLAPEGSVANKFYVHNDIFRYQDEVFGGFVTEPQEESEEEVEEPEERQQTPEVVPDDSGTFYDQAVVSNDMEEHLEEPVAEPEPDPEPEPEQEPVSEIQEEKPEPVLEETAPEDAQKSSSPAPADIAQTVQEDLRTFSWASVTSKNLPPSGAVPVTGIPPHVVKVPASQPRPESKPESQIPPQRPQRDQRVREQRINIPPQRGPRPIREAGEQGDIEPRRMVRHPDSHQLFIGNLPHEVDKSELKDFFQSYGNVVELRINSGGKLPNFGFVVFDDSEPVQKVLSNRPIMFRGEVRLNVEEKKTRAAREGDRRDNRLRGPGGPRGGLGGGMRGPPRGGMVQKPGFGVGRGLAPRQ
All sequences stand within: GGGAGUUCUACAGUCCGACGAUC … UGGAAUUCUCGGGUGUCAAGG
Sequence | log2 enrichment
CAAGUCCUGUGCUACACAUCGUAUGUACCGAAUCGGGGUUUGGUUUGGUUUGGGGAAAGUAUUAUGUUACGCCGUUCGGAUCUGCACUUC | -0.342
CCUGUGCUACACAUCGUAUGUACCGAAUCGGGGUUUUUUUGGGGAAAAAGGGGUUUGGGGAAAGUAUUAUGUUACGCCGUUCGGAUCUGC | 0.358
CUCAAGUCCUGUGCUACACAUCGUAUGUACCGAAUCGGGGUGGUGGGGUGGGGAAAGUAUUAUGUUACGCCGUUCGGAUCUGCACUUCCA | 0.197
CUCAAGUCCUGUGCUACACAUCGUAUGUACCGAAUCGGAAAGGGAAAGGAAAGGAAAGUAUUAUGUUACGCCGUUCGGAUCUGCACUUCC | -0.272
CCUCAAGUCCUGUGCUACACAUCGUAUGUACCGAAUCGGGCGGGGCGGCGGGAAAGUAUUAUGUUACGCCGUUCGGAUCUGCACUUCCAG | -0.171
CAAGUCCUGUGCUACACAUCGUAUGUACCGAAUCGGGGUGGGGUGGGGUUUGGGGAAAGUAUUAUGUUACGCCGUUCGGAUCUGCACUUC | 1.22
CACAGACAACACGCACCCACACAGACACAGAGGGAAGUGGUUGGGAUGGGGACAGGGUGCACAGCAGGGCGGGGUAGGACCCCAGCCCCU | -0.0263
UGGUUUGAGUCCAGCCAAUGACACUGGAGCCAAAAAGAAGAAAAAGAAACAAAAAAAGAAGAAAGAAAAAGGCAGUGAGACAGAUUCAGC | 0.236
GAUGAUUACUAUGGUUAUGAUUAUCACGACUAUCGUGGAGGCUAUGAAGAUCCCUACUACGGCUAUGAUGAUGGCUAUGCAGUAAGAGGA | -0.154
CAAGUCCUGUGCUACACAUCGUAUGUACCGAAUCGGGUUUUUUUGGGAGGGAGGGAAAGUAUUAUGUUACGCCGUUCGGAUCUGCACUUC | 0.562
CACAGACAACACGCACCCACACAGACACAGAGGGAAGGGGUUGGGAUGGGGAAAAGGUGCACAGCAGGGCGGGGUAGGACCCCAGCCCCU | -0.0192
UCCUGUGCUACACAUCGUAUGUACCGAAUCGGGAAAAAAGGAAAAAAGGGAAAAAAGGGGAAAGUAUUAUGUUACGCCGUUCGGAUCUGC | -0.0398

Repeated from above (set 6):
Sequence | bound/input enrichment
AUAAUGAAUAUUAAAUGAUUUUUCUUCAGUCACAGUGAGAGCAUCUUGCUUUGUGGUUGAAAUAGGUAGUGUAUGUCAGUCUUUGCUUUAGGCUGUUUCUCAUCUAAGUGUUUGAAUUAA | 8.39 ratio
CAAAUUCAUCUCUUUUUAUAUGUCCGAAAACGGCCGAGCUUUUCAGCAGUGGCUGGCUUGGCCGACUCUGCCGUCCCUGGCAGAGCGUUGUUACUGUUGCUCCUUAGCAGCUGCUGCCUG | 0.585 ratio
AAAAAAGAGGCAAAGAAACGGGAGAAACUAGAGAAAUUCCAGCAGAAGCAGAAGACCCAGCAGCAGCCCCCGCACGGAGAGAAGAAACCAAAACCAGAGAAGAAGGAGAAACGGGACCCU | 0.506 ratio
UACUGAACUGAACCUGUAAGCCAGCCCCAAUUAAAUGUUGUCCUUAGAAGAGUUGCUUUGGUCAUGGUGUCUGUUCUCAGCGAGGAAAACCCUAGCCAAGAUAGAUGCAAAAGAAAGGAG | 0.259 ratio
GGAGAUGGACUUUUUGAUGAAGAAAUCCGAAGUGUCUUUACCAAUCCGGGUGUUUUGGCUGUCUUGGGUUUUGACAAAACCUGCCUGGUUCCCUUUGGGGGAUCCGAAUGAGCGAUCUCA | 0.141 ratio
UUUUUUGUGAACAAGAUUUUGCCACAGUAUCGUGAUGCAGUCAUGUCUCACACGCUCAUCUAUAUCCCCUCCUACUUUGACUUCGUGCGUCUUCGAAAUUACUUCAAGAAGGAGGAAUUG | 0.22 ratio
CUGAGAUUAUAUGAAGCAGUUAUUGAUGCUAAGAAACUUUUAUCUGAGCUUUCUAACCCUGAAAUUUCUAAAUAUGUUGGUGAAGUCUUUAACAUCGUCAGUCAACAAUCAACAGCCAGG | 0.319 ratio
